# Measured values of several laboratories.
# Compare with care: the assays were run in different laboratories. Values joined by “and” are separate records of one study, mostly repeats; a detail may differ. ± marks the error that the study gave.
SMILES,tested on,test,system,setting,how to read,quantity,value
Cn1c(=O)[nH]c(=O)c2[nH]cnc21,,,"human, both sexes, cerebrospinal fluid",,,samples above LOQ,0%
C=CC[C@@H]1/C=C(\C)C[C@H](C)C[C@H](OC)[C@H]2O[C@@](O)(C(=O)C(=O)N3CCCC[C@H]3C(=O)O[C@H](/C(C)=C/[C@@H]3CC[C@@H](O)[C@H](OC)C3)[C@H](C)[C@@H](O)CC1=O)[C@H](C)C[C@@H]2OC,,,"Wistar Kyoto rat, male, plasma","ip, 0.5 mg/kg/day, day 28, at sacrifice",,plasma Cl- level,99 ± 2 mmol/L
CCc1cc2ncc(CN3CCN(c4ccc(C(=O)NC)nc4)CC3)cc2[nH]c1=O,,,"male rat, blood","oral, 25 mg/kg/day, 4 weeks",relative to: vehicle control,Neutrophils count ratio,0.71
NC1(C(=O)N[C@@H](CCO)c2ccc(Cl)cc2)CCN(c2nc[nH]c3nccc2-3)CC1,,,metastatic CRPC patients,"400 mg b.i.d., grade 3 to 4, treatment-related, together with: enzalutamide 160 mg daily",,incidence of Leukopenia,0%
COc1cc2nccc(Oc3ccc(NC(=O)c4cc5c(n(-c6ccccc6)c4=O)CCCC5=O)nc3)c2cc1OC,,,relapsed or refractory AML,"oral, all dose levels",,grade ≥3 Thrombocytopenia patients,10%
CN1CCN(c2cccc3c2CCN(C(=O)/C=C/c2c(-n4cnnn4)ccc(Cl)c2F)[C@@H]3C(=O)Nc2ccc(C(=O)O)cc2)C(=O)C1,,,healthy human subjects,"intravenous infusion, 4 mg/h, 2 h",,subjects with treatment-related adverse event,0%
Cc1cc(Nc2cc3ncccc3c(N[C@@H]3C[C@H]4CC[C@@H](C3)N4CCC#N)n2)n[nH]1,,,healthy human subjects,"oral, 30 mg, 14 days, multiple ascending dose",,sneezing incidence,0%
O=C(c1cccnc1-c1ccncc1)N1CCC(O)(Cc2ccccc2)CC1,,,"healthy Japanese adults, plasma","oral, 100 mg twice daily, day 1",,AUClast,232 ng·h/mL
CCCCC[C@H](O)CC[C@@H]1[C@H]2Cc3cccc(OCC(=O)O)c3C[C@H]2C[C@H]1O,,LC-MS/MS,"Japanese PAH patients aged ≥sample A years, plasma","inhaled, 54 µg",,geometric mean AUC(0-last),1.08 ng·h/mL
Cn1cncc1[C@@](N)(c1ccc(Cl)cc1)c1ccc2c(c1)c(-c1cccc(Cl)c1)cc(=O)n2C,,,"human, plasma","oral, 200 mg/m^2, cycle 1 first dose",relative to: AUC(0-inf) over AUC(0-12h),accumulation index,1.25 and 1.13 and 1.05 and 1.11 and 1.58
COc1ccc(CCC(=O)O)cc1O[C@@H]1O[C@H](C(=O)O)[C@@H](O)[C@H](O)[C@H]1O,,,human plasma,mean,,plasma concentration,576 nM
CCc1nc(C(N)=O)c(Nc2ccc(N3CCC(N4CCN(C)CC4)CC3)c(OC)c2)nc1NC1CCOCC1,,,"Japanese patients, plasma","oral, 40 mg, cycle 1 day 28, multiple doses, mean",,AUCtau,2410 ng·h/mL
CCC[C@@H]1C[C@@H](C(=O)N[C@@H]([C@H]2O[C@H](SC)[C@H](O)[C@@H](O)[C@H]2O)[C@@H](C)O)N(C)C1,,starch gel membrane permeability,Gram-negative envelope surrogate,"200 µM, 45 min, pH 7.4",,amount permeated,2.01 nmol
CC(C)(C(=O)N1CCOc2c(C#N)cncc2C1)C(F)F,,measured: gingival bleeding,"human, both sexes","oral, 10 mg once daily, 14 days, multiple ascending dose",,subjects with TEAE,0%
CCC(=O)NS(=O)(=O)c1ccc(-c2c(-c3ccccc3)noc2C)cc1,COS-7,,,"50 µM, 24 h, 0.1% DMSO, unit not given",relative to: vehicle control,apoptotic cells,0.82 ± 0.08
O=C(O)[C@H]1O[C@@H](Oc2ccc(/C=C/c3cc(O)cc(O)c3)cc2)[C@H](O)[C@@H](O)[C@@H]1O,,,"human, cerebrospinal fluid",,,samples above LOQ,0%
Cc1cc(NC2CCN(C(=O)OC3CCN(C(=O)/C=C/CN(C)C)C3)CC2)n2ncc(C(C)C)c2n1 (stereo not shown),,"CTCAE v4.0, measured: Dyspepsia",patients with advanced solid tumours,"oral, dose not given, all schedules, grade 3 or higher",,patients with TEAE,0%
COc1cc2c(NC3CCN(C)CC3)nc(N3CCCN(C)CC3)nc2cc1OCCCN(C)C,OCI-Ly1,,,"0.5 µM, 120 h",,viability,165%
CCN1/C(=C/C(C)=O)Sc2ccc(F)cc21,,,cynomolgus monkey,"oral, 100 mg/kg, 2 h post-dose",,mean blood pressure,86 ± 4 mmHg
Nc1nc(OCc2cc(Br)cs2)c2[nH]cnc2n1,OCI-Ly1,,,"0.5 µM, 120 h",,viability,113%
CN(C)[C@@H]1C(O)=C(C(N)=O)C(=O)[C@@]2(O)C(O)=C3C(=O)c4c(O)cccc4[C@@](C)(O)[C@H]3C[C@@H]12,,starch gel membrane permeability,Gram-negative envelope surrogate,"200 µM, 60 min, pH 7.4",,amount permeated,3.07 nmol
Cc1ccc([C@@H]2O[C@H](CO)[C@@H](O)[C@H](O)[C@H]2O)cc1Cc1ccc(-c2ccc(F)cc2)s1,,,Japanese type 2 diabetes patients,"200 mg, day 15, 24 h urine collection",relative to: baseline,urinary sodium excretion change,9.71 mEq

# Repeated from above:
SMILES,tested on,test,system,setting,how to read,quantity,value
CN1CCN(c2cccc3c2CCN(C(=O)/C=C/c2c(-n4cnnn4)ccc(Cl)c2F)[C@@H]3C(=O)Nc2ccc(C(=O)O)cc2)C(=O)C1,,,healthy human subjects,"intravenous infusion, 4 mg/h, 2 h",,subjects with treatment-related adverse event,0%
CCc1nc(C(N)=O)c(Nc2ccc(N3CCC(N4CCN(C)CC4)CC3)c(OC)c2)nc1NC1CCOCC1,,,"Japanese patients, plasma","oral, 40 mg, cycle 1 day 28, multiple doses, mean",,AUCtau,2410 ng·h/mL
